# Published values gathered from unrelated publications.
# Compare with care: the assays were run in different laboratories. Several values in a cell are separate wells, animals, samples, runs or records. ± gives the spread as reported.
# ampC: Beta-lactamase (ampC, Escherichia coli K-12, UniProt P00811)
# HLA class I histocompatibility antigen, A alpha chain allele A*02:01: HLA class I histocompatibility antigen, A alpha chain, allele A*02:01 (Homo sapiens, UniProt P04439)
Compound,target or system,test,system,conditions,measurement,value
OC[C@H]1O[C@@H](OCCc2ccccc2)[C@H](O)[C@@H](O)[C@H]1O,"lacI (Escherichia coli, UniProt P03023, D149C/N125C)","operator DNA release, nitrocellulose filter binding",,with: O1 operator DNA,EC50,> 1000 µM
C[C@]1(CO)Cc2ncn(-c3ccc(C#N)c(Cl)c3)c2C(=O)O1,,,"human, plasma","5 mg single dose, geometric mean",Cmax,201 nM
CC(C)C[C@H](NC(=O)[C@H](CC(C)C)NC(=O)[C@H](CCCCN)NC(=O)c1ccc2c(c1)C(=O)OC21c2ccc(N(C)C)cc2Oc2cc(N(C)C)ccc21)C(=O)NCC(=O)N[C@@H](C)C(=O)N[C@@H](CCC(=O)O)C(=O)N[C@@H](CCC(=O)O)C(=O)N[C@@H](CCCCN)C(=O)N[C@@H](CCC(=O)O)C(=O)N[C@@H](Cc1ccc(OP(=O)(O)O)cc1)C(=O)N[C@@H](Cc1c[nH]cn1)C(=O)N[C@@H](C)C(=O)N[C@@H](CCC(=O)O)C(=O)NCC(=O)NCC(=O)N[C@@H](CCCCN)C(=O)N[C@H](C(=O)N[C@@H](CC(=O)O)C(=O)O)C(C)C,"Tyrosine-protein kinase Blk, SH2 domain (BLK, Homo sapiens, UniProt P51451)",binding,,,Kd,1.71 µM
COc1ccc(N=Nc2ccc3[nH]cc(CCN(C)C)c3c2)cc1,"5-hydroxytryptamine receptor 1B (HTR1B, Homo sapiens, UniProt P28222)","binding, radioligand binding",,ambient light,Ki,0.0163 µM
CSCC[C@H](NC(=O)CNC(=O)[C@H](Cc1ccccc1)NC(=O)[C@H](CC(=O)O)NC(=O)CNC(=O)c1ccc2c(c1)C(=O)OC21c2ccc(N(C)C)cc2Oc2cc(N(C)C)ccc21)C(=O)N[C@@H](CO)C(=O)N[C@@H](CCCNC(=N)N)C(=O)N[C@@H](CC(=O)O)C(=O)N[C@H](C(=O)N[C@@H](Cc1ccc(OP(=O)(O)O)cc1)C(=O)N[C@@H](CO)C(=O)N[C@H](C(=O)N[C@@H](CC(=O)O)C(=O)N[C@@H](Cc1ccc(O)cc1)C(=O)N[C@@H](Cc1ccc(O)cc1)C(=O)N[C@@H](CCCNC(=N)N)C(=O)N[C@H](C(=O)N[C@@H](CC(=O)O)C(=O)O)C(C)C)[C@@H](C)O)C(C)C,"SH2 domain-containing protein 3C, SH2 domain (SH2D3C, Homo sapiens, UniProt Q8N5H7)",binding,,,Kd,1.4 µM
COc1cc2c(Oc3ccc4[nH]c(C)cc4c3F)ccnc2cc1OCC1(N)CC1,,,paediatric recurrent refractory sarcoma,8 mg,grade 1 or 2 sinus tachycardia,0%
C[C@@H](O)[C@@H](CO)NC(=O)[C@@H](CCCNC(=N)N)NC(=O)[C@@H]1CCCN1C(=O)[C@@H]1CSSC[C@H](NC(=O)[C@H](Cc2ccccc2)NC(=O)CN2CCN(CC(=O)O)CCN(CC(=O)O)CCN(CC(=O)O)CC2)C(=O)N[C@@H](Cc2ccc(O)cc2)C(=O)N[C@@H](Cc2ccccc2)C(=O)N[C@@H](CCC(N)=O)C(=O)N[C@@H](CC(N)=O)C(=O)N1 [gallium-68 labelled],,,"Wistar rat, heart","intravenous, 8 MBq, 30 min, group mean",tissue uptake,0.24 %ID/g
CC[C@H](C)[C@H](NC(=O)[C@@H](N)Cc1c[nH]cn1)C(=O)N[C@@H](Cc1ccccc1)C(=O)N[C@@H](CO)C(=O)N[C@@H](CCCNC(=N)N)C(=O)N1CCC[C@H]1C(=O)N[C@@H](CCSC)C(=O)N[C@H](C(=O)N[C@@H](Cc1ccccc1)C(=O)O)[C@@H](C)O,"HLA class I histocompatibility antigen, A alpha chain, allele A*24:02 (Homo sapiens, UniProt P04439)",binding,,,IC50,1.84 µM
COc1cc(C(=O)N2CC[C@@H](O)[C@@H](N)C2)cc2nc(-c3cc4ccccc4n3CC3CC3)n(C)c12,"Adenosine receptor A2a (ADORA2A, Homo sapiens, UniProt P29274)","agonist, TR-FRET",,,EC50,> 31.6 µM
O=S(=O)(Nc1c(Cl)ccc2c1OCO2)c1cc(Cl)cc(Cl)c1O,ampC,"enzyme activity, inhibitor, concentration-response curves",,with: nitrocefin 50 µM,Ki,1.92 µM
CSCC[C@H](NC(=O)[C@@H](N)CCCNC(=N)N)C(=O)N[C@@H](Cc1ccc(O)cc1)C(=O)N[C@@H](CC(=O)O)C(=O)N[C@@H](CCCNC(=N)N)C(=O)N[C@@H](Cc1c[nH]cn1)C(=O)N[C@@H](Cc1ccc(O)cc1)C(=O)N[C@@H](CC(C)C)C(=O)N[C@@H](Cc1ccccc1)C(=O)O,"HLA class I histocompatibility antigen, A alpha chain allele A*02:01",binding,,,IC50,0.265 µM
COc1ccc(N2C(=O)N(c3c(C)cccc3Cl)Cc3cnc(Nc4ccc(C5CCN(C)CC5)cc4OC)nc32)nc1,"Casein kinase I isoform delta (CSNK1D, Homo sapiens, UniProt P48730)","kinase activity, inhibitor",,"0.5 µM, kinase CK1-DELTA",inhibition,4.72%
COC(=O)C(Cc1ccsc1)NS(=O)(=O)c1cccc(Cl)c1O (stereo not drawn),ampC,,,,Ki,204 µM
CC[C@H](C)[C@H](NC(=O)[C@@H]1CCCN1C(=O)[C@H](Cc1c[nH]cn1)NC(=O)[C@H](CCCCN)NC(=O)[C@H](Cc1ccc(O)cc1)NC(=O)[C@@H](NC(=O)[C@@H](N)Cc1ccc(O)cc1)[C@@H](C)O)C(=O)N[C@@H](Cc1ccc(O)cc1)C(=O)N[C@@H](CC(C)C)C(=O)O,"HLA class I histocompatibility antigen, A alpha chain, allele A*01:01 (Homo sapiens, UniProt P04439)",binding,,,IC50,2.8 µM
CC(C)C[C@@H]1NC(=O)[C@H](CC(C)C)NC(=O)[C@H](Cc2c[nH]c3ccccc23)NC(=O)[C@H](CO)NC(=O)[C@H](Cc2c[nH]c3ccccc23)NC(=O)[C@@H]2CCCN2C(=O)[C@H](CC(C)C)NC(=O)[C@H](Cc2c[nH]cn2)NC(=O)[C@@H]2CCCN2C(=O)[C@H](CC(N)=O)NC(=O)[C@H](C)NC(=O)[C@H](Cc2ccc(O)cc2)NC(=O)[C@H](CS)NC(=O)[C@H](CCCCNC(=O)CN2CCN(CC(=O)O)CCN(CC(=O)O)CCN(CC(=O)O)CC2)NC1=O [lutetium-177 labelled],,,"Balb/c mouse, female, 4T1 tumour, heart","intravenous, 3.7 MBq, 1 h",tissue uptake,0.1 ± 0.12 %ID
C[C@H]1CN(c2n[nH]c3nc(N[C@H]4CC[C@H](NS(=O)(=O)CCC(F)(F)F)CC4)ncc23)CCO1,"Nuclear cap-binding protein subunit 1 (Homo sapiens, UniProt Q09161)",biochemical,,,IC50,≥ 20 µM
CC[C@H](C)[C@H](NC(=O)[C@H](Cc1ccccc1)NC(=O)[C@H](CCC(=O)O)NC(=O)[C@H](CCCNC(=N)N)NC(=O)[C@H](C)NC(=O)[C@H](C)NC(=O)[C@H](CCC(N)=O)NC(=O)[C@H](CCC(=O)O)NC(=O)[C@H](CCC(=O)O)NC(=O)[C@H](CC(C)C)NC(=O)[C@H](Cc1ccc(O)cc1)NC(=O)[C@H](CO)NC(=O)[C@H](CO)NC(=O)[C@@H](NC(=O)[C@H](CC(=O)O)NC(=O)[C@H](CO)NC(=O)[C@@H](NC(=O)[C@H](Cc1ccccc1)NC(=O)[C@@H](NC(=O)CNC(=O)[C@H](CCC(=O)O)NC(=O)[C@H](C)NC(=O)CCc1c[nH]cn1)[C@@H](C)O)[C@@H](C)O)C(C)C)C(=O)N[C@@H](C)C(=O)N[C@@H](Cc1c[nH]c2ccccc12)C(=O)N[C@@H](CC(C)C)C(=O)N[C@H](C(=O)N[C@@H](CCCNC(=N)N)C(=O)NCC(=O)N[C@@H](CCCNC(=N)N)C(=O)N[C@@H](CCCCNC(=O)COCCOCCNC(=O)COCCOCCNC(=O)CC[C@H](NC(=O)CCCCCCCCCCCCCCCCC(=O)O)C(=O)O)C(=O)NCC(=O)NCC(=O)N[C@@H](CO)C(=O)N[C@@H](CCCCNc1c(NCCCCCN(O)C(=O)CCC(=O)NCCCCCN(O)C(=O)CCC(=O)NCCCCCN(O)C(C)=O)c(=O)c1=O)C(=O)O)C(C)C [zirconium-89 labelled],,,"rat, colon","iv, 3 nmol/kg, 24 h, ex vivo",tissue uptake,0.26 %ID/g
COC(=O)c1cc(NS(=O)(=O)c2cc(Cl)cc(Cl)c2O)cnc1OC,ampC,,,,Ki,72.9 µM
CC[C@H](C)[C@H](NC(=O)[C@@H]1CCCN1C(=O)[C@H](CO)NC(=O)[C@H](CCSC)NC(=O)[C@H](CCC(N)=O)NC(=O)[C@@H](N)CCCCN)C(=O)N[C@@H](Cc1c[nH]c2ccccc12)C(=O)N[C@H](C(=O)N[C@@H](Cc1ccc(O)cc1)C(=O)O)[C@@H](C)O,"HLA class I histocompatibility antigen, A alpha chain allele A*02:01",binding,,,IC50,8.29 µM
COc1cc(Nc2ncc(F)c(Nc3ccc4c(n3)NC(=O)C(C)(C)O4)n2)cc(OC)c1OC,"Dual specificity protein phosphatase 3 (DUSP3, Homo sapiens, UniProt P51452)",,,VHR,IC50,> 10 µM
Nc1nc2c(ncn2[C@@H]2O[C@H](COP(=O)(O)OP(O)(O)=S)[C@@H](O)[C@H]2O)c(=O)[nH]1,"OPRM1/GNAI1 (Homo sapiens, UniProt P35372+P63096)",MOR-Gi coupling,HEK293F,ratio 1:1,IC50,0.0419 µM and 0.0483 µM
CCCOC(=O)C(Cc1ccoc1)NS(=O)(=O)c1cccc(Cl)c1O (stereo not drawn),ampC,,,,Ki,170 µM
CC[C@H](C)[C@H](NC(=O)[C@@H]1CCCN1C(=O)[C@H](CC(=O)O)NC(=O)[C@H](CCSC)NC(=O)[C@@H](N)Cc1ccc(O)cc1)C(=O)N1CCC[C@H]1C(=O)N[C@@H](Cc1c[nH]cn1)C(=O)N[C@@H](CCC(N)=O)C(=O)N[C@@H](Cc1ccc(O)cc1)C(=O)O,"HLA class I histocompatibility antigen, A alpha chain allele A*02:01",binding,,,IC50,1.25 µM
CO[C@H]1C[C@@H]2CC[C@@H](C)[C@@](O)(O2)C(=O)C(=O)N2CCCC[C@H]2C(=O)O[C@H]([C@H](C)C[C@@H]2CC[C@@H](OC(=O)NCCOCCOCCOCCOCCOCCOCCOCCOCCC(=O)N3CCc4cc(Cn5nc(-c6ccc7oc(N)nc7c6)c6c(N)ncnc65)ccc4C3)[C@H](OC)C2)C[C@@H](O)[C@H](C)/C=C(\C)[C@@H](O)[C@@H](OC)C(=O)[C@H](C)C[C@H](C)/C=C/C=C/C=C/1C,,phase 1 dose escalation,advanced solid tumour patients,"intravenous, 8 mg weekly, any grade",deaths due to TRAEs,0%

# Some of these lines once more:
Compound,target or system,test,system,conditions,measurement,value
COc1cc(Nc2ncc(F)c(Nc3ccc4c(n3)NC(=O)C(C)(C)O4)n2)cc(OC)c1OC,"Dual specificity protein phosphatase 3 (DUSP3, Homo sapiens, UniProt P51452)",,,VHR,IC50,> 10 µM
Nc1nc2c(ncn2[C@@H]2O[C@H](COP(=O)(O)OP(O)(O)=S)[C@@H](O)[C@H]2O)c(=O)[nH]1,"OPRM1/GNAI1 (Homo sapiens, UniProt P35372+P63096)",MOR-Gi coupling,HEK293F,ratio 1:1,IC50,0.0419 µM and 0.0483 µM
